# Measured values from different studies.
# Compare with care: the assays were run in different laboratories.
# Target: Mitogen-activated protein kinase kinase kinase 2 (MAP3K2, Homo sapiens, UniProt Q9Y2U5)
SMILES,assay,system,conditions,scale,measurement,value
Nc1ncc2c(n1)-c1c([nH]c3ccc(C4=CCOCC4)cc13)CCC2,"binding, competition with immobilised ligand",,1 µM,,remaining binding,87%
CS(=O)(=O)Nc1cccc(-c2csc3cnc(Nc4ccc(N5CCN(CCCCCOc6cccc7c6C(=O)N(C6CCC(=O)NC6=O)C7=O)CC5)cc4)nc23)c1 (stereo not drawn),"probe labelling, inhibitor, KiNativ chemoproteomics",MOLT-4,1 µM,,inhibition,-28.8%
CCn1cc(C(=O)O)c(=O)c2c(N)c(F)c(NC3CCCCC3)cc21,kinase activity,,"0.1 µM, together with: ATP at Km",,inhibition,-27.1%
CN1CC[C@@H](COc2cnc(C#N)cc2-c2ccn3nc(NC(=O)C4CC4)cc3c2)C1,"enzyme activity, inhibitor",,1 µM,,inhibition,3%
Nc1ncc(-c2cc(-c3cnn(CC(F)(F)F)c3)ncc2F)nc1C(=O)NC1CNCC(F)C1 (stereo not drawn),enzyme activity,,1 µM,relative to: DMSO control,remaining activity,84.5%
NC(=O)[C@@H](O)C[C@H]1CCc2sc3ncnc(O[C@H]4CC[C@H](N5CCOCC5)CC4)c3c21,"enzyme activity, inhibitor",,10 µM,,inhibition,6%
Cc1cc(NC(=O)[C@H](O)c2cc(F)cc(F)c2)ccc1-c1cnc(N)c(C(=O)NC(C)C)c1,"binding, competition with immobilised ligand",,1 µM,,remaining binding,61%
Cc1cnc2nc1Nc1cccc(c1)COC/C=C/COCc1cc(ccc1OCCN1CCOCC1)N2,binding,,0.1 µM,,remaining binding,74%
CC(C)=CC1OC(C)(C)C2C=C3C(=O)C(Cl)=CC(O)C3C3C(O)C4OC4C(=O)C132 (stereo not drawn),"cell-free assay, competition with immobilised ligand",,10 µM,,remaining binding,63%
COc1c(Cl)cccc1Nc1c(-c2ccncc2C#C[C@@]2(C)CCCN2C(=O)/C=C/CN(C)C)[nH]c2c1C(=O)NCC2,"binding, competition with immobilised ligand",,3 µM,,remaining binding,100%
CNC(=O)C[C@H](Cc1ccc(C#N)cc1)NC(=O)c1cc(-c2ccc(CN[C@H](C)c3ccc(C)cc3)o2)ccc1Cl,"enzyme activity, inhibitor",,1 µM,,activity vs control,108%
O=C(Cc1ccc(OCc2ccccc2)cc1)NC1(C(=O)O)CCN(C(=O)c2ccc(-c3cccc(Cl)c3)cc2)CC1,"enzyme activity, inhibitor",,10 µM,,activity vs control,103%

# Some of these lines once more:
SMILES,assay,system,conditions,scale,measurement,value
Cc1cc(NC(=O)[C@H](O)c2cc(F)cc(F)c2)ccc1-c1cnc(N)c(C(=O)NC(C)C)c1,"binding, competition with immobilised ligand",,1 µM,,remaining binding,61%
